Measurements gathered from unrelated publications.
Parts stem from different laboratories: compare values within a part only. Substitutions count along the parent as printed.

Sample 1
Target: RING finger protein unkempt homolog, zinc fingers 1-6, GST-SBP tag (UNK, Homo sapiens, UniProt Q9C0B0, residues 30-357)
Method: RNA Bind-n-Seq
Form: RNA
Medium: in vitro
Tested at: not given
Setting: RNA with constant flanks, human and mouse sites, ends assumed
Relative to: input RNA pool
Direction: higher = stronger binding
Shared flanks, not repeated: GGGAGUUCUACAGUCCGACGAUC … CAACAGAGGAUUGAGCAUCA
Construct (chain): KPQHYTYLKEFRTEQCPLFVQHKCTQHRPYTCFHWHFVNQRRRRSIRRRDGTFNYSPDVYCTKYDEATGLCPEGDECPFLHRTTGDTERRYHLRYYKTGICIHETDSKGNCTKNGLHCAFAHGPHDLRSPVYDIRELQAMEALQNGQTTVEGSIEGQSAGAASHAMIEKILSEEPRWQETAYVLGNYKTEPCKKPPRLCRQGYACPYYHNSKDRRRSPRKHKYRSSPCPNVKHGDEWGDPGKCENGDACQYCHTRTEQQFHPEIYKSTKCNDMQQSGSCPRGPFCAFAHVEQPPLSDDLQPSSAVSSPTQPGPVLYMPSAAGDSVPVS
Strand	bound/input enrichment [ratio]
AGGACAGGGUUAGGAUUGGCAAGGAGAGGGGCAGGAAGGUGGGGGGGGGGGUGGUGGCUCUAGUACCGGGGAGAAUAUUCCACAGAACUGUGACUAUGGCUUGGGGCAGGGGUGGGUGUG	1.57
CUGGCAGUGGAGGCAUGUGUGAAUAUUGCCCAGCUUCUGCCACAGGAGGACCUGGAGGCCUUAGUGAUGCCCACCUUGCGACAGGCUGCUGAGGACAAGUCUUGGCGUGUUCGCUACAUG	0.0439
AGCUGGGGUGAGCUGUGUCCUCCUCAUACCUCCAGGUGUGGCUCCACACAUCCCCAGGGGGUCGGUAUUAAGGCCUCGUGCUGACCUUUGCCCUAGUCCAUCUUCCUGACUCUCUGCCUC	0.184
UUCCAGUCAUCUACCGCCCUUUUGUGUUCACCUCUUUUACCCUCCAAUCAACUUCCCAGGUUAGCCCAUCAGUCUGCCAUCUGUCCCUCUGCCCACUGAUCCAUCCAUGUAUGCCCUUGC	0.646
GAGAUUGACUGCACCAUGCUCACCCCUGAGCCAGUUUUAAAGACCUCUGGCCACGUAGACAAAUUUGCUGACUUCAUGGUGAAGGACGUGAAGAACGGAGAGUGCUUCCGAGCAGACCAC	0.219
UUGCCCUGUGAGUUGAGUUACAUCCUUUGUAGCAACACAGCAUCCUCCCAGGCACCUGCACAGUUCUCCAUAGCAGCUUUGCUCCAAGAUACACAAACAUAGGCAAACCACAGGCUGUGU	0.334
CCAAAGCUGGCUGCACUUCUCCGGGUAUUUAGUACUGUGGUGAGGAGCAUUGGGGAACGCUUCAGCCCAAUUCGGGGUCCUCCAAUUACUGAGGCAUAUGUAACAGAUGUUCUGUACAGA	0.301
AUUGAACCUGUAUUUCCGGAGAACACAGAAAACUCUGAAAAAAUAUCCCUUCAGCUUCAUUUAGCUCUGACUUCAAAUUCAUCUUGGGUUCAGUGUCCCAGCCAUUUGGAACUCAUGAAU	0.196

Sample 2
Target: RNA binding protein fox-1 homolog 2, RRM domain, GST-SBP tag (RBFOX2, Homo sapiens, UniProt O43251-10, residues 100-194)
Method: RNA Bind-n-Seq
Form: RNA
Medium: in vitro
Tested at: 365 nM
Setting: natural RNA segment, single round, ends assumed
Relative to: no-protein control
Direction: higher = stronger binding
Shared flanks, not repeated: GGGAGUUCUACAGUCCGACGAUC … UGGAAUUCUCGGGUGCCAA
Construct (chain): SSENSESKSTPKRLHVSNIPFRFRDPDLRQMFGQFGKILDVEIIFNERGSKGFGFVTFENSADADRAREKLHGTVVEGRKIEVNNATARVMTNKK
Strand	RBNS enrichment (R)
AGGGUACUGUUUUGAGCCAAAGGCUGAUACUUAAUUGAAGAGGGAAAAUGCAGAUUUGGGGACAAAGGUCUUUUUACUGCUCAAGUAGGGUCGCUUCUGUCCUGUUGCAA	0.481
UCGAGGAUGCCGGCGACGAGACUCUGACGUGGACCCUGAGCUGCUGAGGUACUUGCUAGGGCGGAUCCUCACCGGAAGUUCGGAGCCAGAGGCUGCUCCUGCCCCGCGCC	0.465
GGCUGCUUGGCAAGGCUGUUCAGGACGUGCACUUCCCCAAGUCGGCACUGAGUGGCCCAGCACCGCCUAGCCCUGCCACCCCACUGCCCUCCUGGGCCUUCUGCUGGAUG	0.558
AUUCUUUGGCUGUGCCCUGAGGGUGCCUGCUCCUUUGUACGGUAACAGUCAAUUUUGAGGUUUCUUUCAGGAAGAGAAAGGGAUGGUUUUGAGGGGCUCAGAAAAUAGGA	0.992
UACAUUGCUACAGUUCACUGUAGCAACAGAUUUGGUGGUGAUGGGGGGAUAGAGGUAGAAGCAGAUAGAAGGUAAUUUUAAAGUUAAUUUAUUAUGAAUCAUUUUCCCCU	0.413
CAGGUGGAACUGCCAGUAUAGAAAGGAUUCUAUGCUGGGCACACAGGACUAUCUCUUUAUGGAAGGAGACAUAUGGGAACAUCCACCACUACCCUCUCCUACCAUCUUCC	0.284
AGUAUCAGCGAGGAGGGGCUUGUCUCCUUCAGAGUUAACAUGGAGGACGAUUGGAGAAUCUCCCUGCCUGUUUGGACUUUGUAAUUAUUUUUUAGCCGUAAUUAAAGAAA	1.28
CUGUCAUGAUAGAGCUGUAAUUCUGGUGUCACACGGAUCACUUACUGGAGGUGUAUAAUAUGAGAUAGUGAGGCAGACAGACAGACAGACAGACAUGGGACUACAUCAUA	2.74
CUGCAGGCACACAAAAUAAAAUAACUCGUGCUCAUUUGGAAUGUAACUCCUGGCACAGUGUUCCUAGACCCCCAGGCUGCAUGGGGGACAGGAGGGCCUGUAGAUAACCC	0.813
UUGUCUACUAUCCAUACUUCUUAUCACUUUAGUUUUUCAUCAGUCAAUAAAAUUAAUUUACUCUUCCCUAAUAUGUUUGAUUUGUUAAGUUUCAGAAACAUGAAAUGAAA	0.565
GUACAGGUACUUUGUCUAAGAAACAUUGGAAGCAGGUUAAAUGUUUUGUAAACUUUGAAAUAUAUGGUCUAAUGUUUAAGCAGAAUUGGAAAAGACUAAGAUCGGUUAAC	1.05
UCUCUUCCAUCUUCUGUGAGUAGGGUUUGGCUUUGUAUCCCUCCCUUGAUUGUUUCCAUACCACUCAAGCCUUUGCUUGAAGAACAUGCUCAAUAAAUGUUUCAUGACUG	0.568

Sample 3
Target: CCNE2, cyclin fold, Cln2 fusion (human)
Method: yeast growth competition, sequencing
Medium: yeast
Setting: weak parent motif
Relative to: not given
Direction: higher = stronger binding
Parent: BORA docking peptide (human); SSLRRKLFLDGNG; partner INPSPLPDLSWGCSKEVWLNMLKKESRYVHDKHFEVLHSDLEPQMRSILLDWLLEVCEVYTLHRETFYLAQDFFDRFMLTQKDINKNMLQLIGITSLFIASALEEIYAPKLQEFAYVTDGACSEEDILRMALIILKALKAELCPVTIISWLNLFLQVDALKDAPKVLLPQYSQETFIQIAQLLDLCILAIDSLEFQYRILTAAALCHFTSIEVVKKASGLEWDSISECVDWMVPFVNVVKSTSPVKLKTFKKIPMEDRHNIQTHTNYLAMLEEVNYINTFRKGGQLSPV
Substitution	normalised enrichment score
SSLRRKLFLDGNA [G13A]	0.526
SSLRRKLFADGNG [L9A]	-0.0955
SSLRAKLFLDGNG [R5A]	0.578
SSLRRKLFLAGNG [D10A]	0.363
SSLRRKLFFDGNG [L9F]	1.32
SSLRRKLFLDGAG [N12A]	1.04
SSLRRALFLDGNG [K6A]	0.848
SSLRKKLFFDGNG [R5K L9F]	1.06

Sample 4
Target: Histone acetyltransferase KAT6A, winged helix 2, GST fusion (KAT6A, Homo sapiens, UniProt Q92794, residues 85-181)
Method: protein binding microarray
Form: double-stranded DNA, one strand shown
Medium: in vitro
Tested at: not given
Setting: 8-mer, flanks averaged, mean of 2 arrays, mostly near background
Relative to: not given
Direction: higher = stronger binding
Target sequence (chain): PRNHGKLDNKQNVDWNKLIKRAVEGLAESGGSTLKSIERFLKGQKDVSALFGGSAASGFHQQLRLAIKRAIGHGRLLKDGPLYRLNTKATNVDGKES
Strand	E-score
AACCTAAT	-0.0308
CGGGGTGC	0.0827
GCGGTATA	-0.0477
AATAAATG	-0.143
AGGTCGGA	0.0708
GGTTGTCA	-0.0976
AACTCGAT	-0.0168
AGTCTGAG	-0.0541
TAGATTAA	0.166
CATTTGGA	0.0511
ACGACGAT	-0.021
TATGAACA	-0.0158
GCTCCACC	0.113
AGTCTGGA	0.0314
CTATCGCA	0.147
CTCGAAGA	0.0798

Sample 5
Target: Fragile X messenger ribonucleoprotein 1, C-terminal low-complexity region (Fmr1, Mus musculus, UniProt P35922)
Method: RNA Bind-n-Seq
Form: RNA
Medium: in vitro
Tested at: 200 nM
Setting: whole 134-nt RNA, ends assumed
Together with: 150 mM LiCl
Relative to: input library
Direction: higher = stronger binding
All molecules: 7-deaza-guanosine replaces G
Strand	log2 enrichment
GGGAGUUCUACAGUCCGACGAUCUCCUGUGCUACACAUCGUAUGUACCGAAUCGGGGUUUUUUGGGUUUUUUGGUUUUUUGGAAAGUAUUAUGUUACGCCGUUCGGAUCUGCAUGGAAUUCUCGGGUGUCAAGG	-0.3
GGGAGUUCUACAGUCCGACGAUCCCUGCUUUUGGGGGUGACCGCCGGAGCGCGGCGUGAGCCCUCCCCCUUGGGAUCCCGCAGCUGACCAGUCGCGCUGACGGACAGACAGACUGGAAUUCUCGGGUGUCAAGG	-3.74
GGGAGUUCUACAGUCCGACGAUCCAAGUCCUGUGCUACACAUCGUAUGUACCGAAUCGGAAAAAAAGGUUUUUGGUGGAAAGUAUUAUGUUACGCCGUUCGGAUCUGCACUUCUGGAAUUCUCGGGUGUCAAGG	-1.96
GGGAGUUCUACAGUCCGACGAUCCAAGUCCUGUGCUACACAUCGUAUGUACCGAAUCGGUUUGGUUUUUGGAAAAAGGAAAGUAUUAUGUUACGCCGUUCGGAUCUGCACUUCUGGAAUUCUCGGGUGUCAAGG	-1.1

Sample 6
Target: ABI1, truncated, D143A, DHFR fusion (Arabidopsis thaliana)
Method: DHFR PCA, deep sequencing
Medium: yeast
Setting: methotrexate growth selection, single substitutions
Together with: (+)-ABA 200 µM
Relative to: wild-type fitted maximum
Direction: higher = stronger binding
Parent: PYL1, truncated, DHFR fusion (Arabidopsis thaliana); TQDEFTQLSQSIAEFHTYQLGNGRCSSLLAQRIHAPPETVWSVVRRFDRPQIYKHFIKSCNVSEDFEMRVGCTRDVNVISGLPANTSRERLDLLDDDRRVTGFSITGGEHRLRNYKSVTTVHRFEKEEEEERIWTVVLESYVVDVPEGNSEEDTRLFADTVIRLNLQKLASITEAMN
Substitution	relative binding score [%]
A35R	42.1
F157W	13.7
Y115C	12.4
R49V	84.9
T173Q	35.8
Y141M	17.7
W134F	104
T106A	72.1

Some of these lines once more (sample 2):
Strand	RBNS enrichment (R)
CUGUCAUGAUAGAGCUGUAAUUCUGGUGUCACACGGAUCACUUACUGGAGGUGUAUAAUAUGAGAUAGUGAGGCAGACAGACAGACAGACAGACAUGGGACUACAUCAUA	2.74
CUGCAGGCACACAAAAUAAAAUAACUCGUGCUCAUUUGGAAUGUAACUCCUGGCACAGUGUUCCUAGACCCCCAGGCUGCAUGGGGGACAGGAGGGCCUGUAGAUAACCC	0.813
GGCUGCUUGGCAAGGCUGUUCAGGACGUGCACUUCCCCAAGUCGGCACUGAGUGGCCCAGCACCGCCUAGCCCUGCCACCCCACUGCCCUCCUGGGCCUUCUGCUGGAUG	0.558
